Experimental data from different studies.
“And” joins repeats or separate records; there may be more than shown. Numbers after ± are the reported error.
HDAC11: Histone deacetylase 11 (HDAC11, Homo sapiens, UniProt Q96DB2)
UniProt Q96DB2, sequence (whole entry, looked up): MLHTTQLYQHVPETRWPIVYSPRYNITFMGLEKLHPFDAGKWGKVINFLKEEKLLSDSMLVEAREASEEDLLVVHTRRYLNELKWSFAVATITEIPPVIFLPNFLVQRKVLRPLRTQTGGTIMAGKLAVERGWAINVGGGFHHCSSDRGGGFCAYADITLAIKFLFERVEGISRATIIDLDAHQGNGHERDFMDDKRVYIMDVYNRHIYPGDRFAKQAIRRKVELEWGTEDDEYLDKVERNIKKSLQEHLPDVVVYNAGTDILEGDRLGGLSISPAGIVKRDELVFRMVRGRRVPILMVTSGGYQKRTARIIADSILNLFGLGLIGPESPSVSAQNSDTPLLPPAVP
CDK4: Cyclin-dependent kinase 4 (CDK4, Homo sapiens, UniProt P11802)
UniProt P11802, sequence (whole entry, looked up): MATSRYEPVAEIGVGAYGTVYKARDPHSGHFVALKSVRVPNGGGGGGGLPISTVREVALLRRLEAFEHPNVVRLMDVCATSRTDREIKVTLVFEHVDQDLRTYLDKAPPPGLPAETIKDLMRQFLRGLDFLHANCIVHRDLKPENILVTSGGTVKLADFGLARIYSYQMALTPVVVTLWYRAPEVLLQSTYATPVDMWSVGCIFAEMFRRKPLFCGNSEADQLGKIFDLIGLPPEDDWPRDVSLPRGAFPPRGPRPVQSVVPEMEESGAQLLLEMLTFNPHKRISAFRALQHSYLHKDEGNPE
Gria2: Glutamate receptor 2 (Gria2, Rattus norvegicus, UniProt P19491)
UniProt P19491, sequence (whole entry, looked up): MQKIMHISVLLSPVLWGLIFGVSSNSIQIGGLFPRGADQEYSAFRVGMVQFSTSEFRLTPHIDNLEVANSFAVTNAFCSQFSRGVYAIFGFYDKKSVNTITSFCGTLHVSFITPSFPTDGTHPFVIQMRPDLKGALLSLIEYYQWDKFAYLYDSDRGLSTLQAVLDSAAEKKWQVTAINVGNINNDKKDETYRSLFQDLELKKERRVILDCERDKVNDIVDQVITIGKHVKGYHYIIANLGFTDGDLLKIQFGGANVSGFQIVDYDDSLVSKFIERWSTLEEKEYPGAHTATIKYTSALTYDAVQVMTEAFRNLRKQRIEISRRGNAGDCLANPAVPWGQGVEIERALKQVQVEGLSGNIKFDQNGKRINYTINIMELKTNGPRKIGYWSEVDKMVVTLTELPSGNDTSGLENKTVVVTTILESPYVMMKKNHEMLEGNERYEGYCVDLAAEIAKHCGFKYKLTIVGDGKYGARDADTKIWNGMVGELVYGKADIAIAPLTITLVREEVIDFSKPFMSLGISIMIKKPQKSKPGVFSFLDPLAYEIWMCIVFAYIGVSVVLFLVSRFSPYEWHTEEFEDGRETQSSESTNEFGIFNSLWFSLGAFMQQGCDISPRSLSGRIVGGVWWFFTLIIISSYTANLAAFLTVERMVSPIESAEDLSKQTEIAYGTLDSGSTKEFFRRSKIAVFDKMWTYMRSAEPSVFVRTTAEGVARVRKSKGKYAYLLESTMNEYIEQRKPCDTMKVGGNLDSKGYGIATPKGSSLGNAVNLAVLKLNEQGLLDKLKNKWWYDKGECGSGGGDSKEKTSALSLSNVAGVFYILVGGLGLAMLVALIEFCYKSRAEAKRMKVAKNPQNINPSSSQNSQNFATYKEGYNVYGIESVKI
MARS2: Methionine--tRNA ligase, mitochondrial (MARS2, Homo sapiens, UniProt Q96GW9)
MAOA: Amine oxidase [flavin-containing] A (MAOA, Homo sapiens, UniProt P21397)
UniProt P21397, sequence (whole entry, looked up): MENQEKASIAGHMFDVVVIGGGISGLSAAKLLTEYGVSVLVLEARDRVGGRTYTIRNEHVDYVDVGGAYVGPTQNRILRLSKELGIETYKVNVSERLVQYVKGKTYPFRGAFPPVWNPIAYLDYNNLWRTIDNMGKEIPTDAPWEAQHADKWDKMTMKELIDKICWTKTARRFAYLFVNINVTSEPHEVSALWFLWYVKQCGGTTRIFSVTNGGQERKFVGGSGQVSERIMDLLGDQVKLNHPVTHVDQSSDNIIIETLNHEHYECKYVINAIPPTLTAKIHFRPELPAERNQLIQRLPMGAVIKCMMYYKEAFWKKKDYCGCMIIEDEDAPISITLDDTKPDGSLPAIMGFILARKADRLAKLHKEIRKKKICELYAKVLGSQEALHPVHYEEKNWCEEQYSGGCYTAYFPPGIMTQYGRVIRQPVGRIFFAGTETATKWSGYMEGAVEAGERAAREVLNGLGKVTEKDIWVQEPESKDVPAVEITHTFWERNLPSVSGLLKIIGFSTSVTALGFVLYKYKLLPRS
DDR2: Discoidin domain-containing receptor 2 (DDR2, Homo sapiens, UniProt Q16832)
UniProt Q16832, sequence (whole entry, looked up): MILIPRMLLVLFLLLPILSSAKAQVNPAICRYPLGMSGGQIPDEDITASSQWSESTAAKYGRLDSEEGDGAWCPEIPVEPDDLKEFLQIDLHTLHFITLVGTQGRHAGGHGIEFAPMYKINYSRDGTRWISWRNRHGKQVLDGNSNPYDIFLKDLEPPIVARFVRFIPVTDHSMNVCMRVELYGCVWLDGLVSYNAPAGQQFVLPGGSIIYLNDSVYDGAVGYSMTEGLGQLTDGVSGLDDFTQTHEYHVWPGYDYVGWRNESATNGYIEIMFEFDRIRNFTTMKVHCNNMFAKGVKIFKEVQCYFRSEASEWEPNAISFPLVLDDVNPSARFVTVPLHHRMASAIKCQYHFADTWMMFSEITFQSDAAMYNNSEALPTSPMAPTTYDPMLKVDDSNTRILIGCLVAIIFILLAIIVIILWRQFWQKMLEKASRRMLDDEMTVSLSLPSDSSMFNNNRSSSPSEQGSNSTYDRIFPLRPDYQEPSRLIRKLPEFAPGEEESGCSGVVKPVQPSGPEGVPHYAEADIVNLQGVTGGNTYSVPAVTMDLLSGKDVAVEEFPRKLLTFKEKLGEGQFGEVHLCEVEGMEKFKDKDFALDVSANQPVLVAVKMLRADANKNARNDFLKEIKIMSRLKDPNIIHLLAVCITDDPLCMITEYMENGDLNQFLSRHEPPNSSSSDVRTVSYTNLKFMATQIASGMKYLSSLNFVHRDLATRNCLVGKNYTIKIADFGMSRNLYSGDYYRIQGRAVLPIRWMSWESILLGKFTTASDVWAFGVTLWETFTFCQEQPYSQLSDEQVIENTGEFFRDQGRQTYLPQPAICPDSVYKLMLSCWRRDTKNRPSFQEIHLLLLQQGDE
VKORC1: Vitamin K epoxide reductase complex subunit 1 (VKORC1, Homo sapiens, UniProt Q9BQB6)
UniProt Q9BQB6, sequence (whole entry, looked up): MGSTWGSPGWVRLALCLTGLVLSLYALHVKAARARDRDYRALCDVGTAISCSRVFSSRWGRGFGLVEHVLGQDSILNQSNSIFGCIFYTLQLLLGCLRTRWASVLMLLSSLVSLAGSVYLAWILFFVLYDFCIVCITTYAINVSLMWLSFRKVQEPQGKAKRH
UniProt Q15858, sequence (whole entry, unmodified, looked up): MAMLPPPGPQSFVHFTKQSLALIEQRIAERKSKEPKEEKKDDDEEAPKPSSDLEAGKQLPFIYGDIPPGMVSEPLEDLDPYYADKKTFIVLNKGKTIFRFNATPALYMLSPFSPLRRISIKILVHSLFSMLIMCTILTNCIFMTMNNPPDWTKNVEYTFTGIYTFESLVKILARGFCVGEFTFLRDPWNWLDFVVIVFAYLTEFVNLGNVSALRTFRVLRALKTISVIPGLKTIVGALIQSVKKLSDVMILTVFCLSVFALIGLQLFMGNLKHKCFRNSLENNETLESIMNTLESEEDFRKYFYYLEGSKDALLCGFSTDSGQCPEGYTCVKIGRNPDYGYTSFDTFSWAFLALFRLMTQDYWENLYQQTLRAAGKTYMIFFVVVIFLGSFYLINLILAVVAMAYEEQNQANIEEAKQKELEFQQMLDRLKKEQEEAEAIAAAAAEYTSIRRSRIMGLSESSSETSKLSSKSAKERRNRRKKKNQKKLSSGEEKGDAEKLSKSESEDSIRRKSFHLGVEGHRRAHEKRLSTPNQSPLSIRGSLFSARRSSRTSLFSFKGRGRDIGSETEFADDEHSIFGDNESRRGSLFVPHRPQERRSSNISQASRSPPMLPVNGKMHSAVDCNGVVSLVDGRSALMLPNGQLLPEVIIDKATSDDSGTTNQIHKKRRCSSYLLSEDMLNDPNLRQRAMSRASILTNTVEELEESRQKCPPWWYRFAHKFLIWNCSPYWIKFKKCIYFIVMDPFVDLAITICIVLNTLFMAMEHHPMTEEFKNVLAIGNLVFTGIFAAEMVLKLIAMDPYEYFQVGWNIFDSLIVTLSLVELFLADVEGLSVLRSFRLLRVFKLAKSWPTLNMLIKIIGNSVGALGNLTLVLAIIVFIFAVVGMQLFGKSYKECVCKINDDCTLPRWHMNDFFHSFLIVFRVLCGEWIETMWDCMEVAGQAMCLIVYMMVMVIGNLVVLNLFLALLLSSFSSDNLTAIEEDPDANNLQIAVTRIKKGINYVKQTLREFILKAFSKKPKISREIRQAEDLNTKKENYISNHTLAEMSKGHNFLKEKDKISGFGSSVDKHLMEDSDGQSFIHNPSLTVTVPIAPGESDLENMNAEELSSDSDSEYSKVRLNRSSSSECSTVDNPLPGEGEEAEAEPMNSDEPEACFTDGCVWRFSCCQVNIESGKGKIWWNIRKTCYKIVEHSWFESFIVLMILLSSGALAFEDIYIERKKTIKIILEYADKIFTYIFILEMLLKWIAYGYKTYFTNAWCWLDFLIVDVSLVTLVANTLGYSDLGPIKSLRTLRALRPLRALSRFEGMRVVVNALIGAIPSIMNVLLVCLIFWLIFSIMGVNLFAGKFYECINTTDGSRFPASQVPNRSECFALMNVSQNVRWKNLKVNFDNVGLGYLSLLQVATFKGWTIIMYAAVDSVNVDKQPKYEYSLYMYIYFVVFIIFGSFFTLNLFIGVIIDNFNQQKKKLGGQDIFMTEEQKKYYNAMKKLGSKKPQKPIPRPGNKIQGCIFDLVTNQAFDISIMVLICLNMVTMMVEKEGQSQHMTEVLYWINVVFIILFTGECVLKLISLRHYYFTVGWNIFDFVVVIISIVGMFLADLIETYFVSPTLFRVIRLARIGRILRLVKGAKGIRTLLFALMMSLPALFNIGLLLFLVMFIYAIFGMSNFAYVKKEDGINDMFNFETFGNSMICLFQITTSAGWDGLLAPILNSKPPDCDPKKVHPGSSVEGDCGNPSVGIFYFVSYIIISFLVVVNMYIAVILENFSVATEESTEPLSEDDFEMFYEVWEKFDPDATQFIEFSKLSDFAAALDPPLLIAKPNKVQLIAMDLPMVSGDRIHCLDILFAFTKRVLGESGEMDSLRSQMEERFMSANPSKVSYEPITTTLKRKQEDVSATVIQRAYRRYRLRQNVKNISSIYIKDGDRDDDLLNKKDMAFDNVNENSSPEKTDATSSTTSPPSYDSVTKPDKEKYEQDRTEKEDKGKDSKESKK

Structure (SMILES) | target | test | test system | conditions | IC50
CC(C)(COP(=O)(O)OP(=O)(O)OC[C@H]1O[C@@H](n2cnc3c(N)ncnc32)[C@H](O)[C@@H]1OP(=O)(O)O)[C@@H](O)C(=O)NCCC(=O)NCCSCC(=O)N[C@@H](CO)C(=O)NCC(=O)N[C@@H](CCCNC(=N)N)C(N)=O | NAA40 (Homo sapiens, UniProt Q86UY6) | enzyme activity, inhibitor, fluorescence | – | – | 167 nM
O=C(CCc1ccc(CNC(C(=O)OC2CCCC2)C2CCCCC2)cn1)NO (stereo not drawn) | HDAC11 | enzyme activity, inhibitor | – | – | 977 nM
C=CC(=O)Nc1cc(-c2nn(C3CCN(CCNC(=O)[C@H](C)CCC45CC6CC(CC(C6)C4)C5)CC3)c3ncnc(N)c23)ccc1Oc1ccccc1 | ERBB2 (Homo sapiens, UniProt P04626) | enzyme activity, inhibitor, FRET | – | – | > 10000 nM
CC(C)C[C@@H]1NC(=O)[C@H](C(C)C)NC(=O)[C@H](Cc2c[nH]c3ccccc23)NC(=O)[C@@H]2CSSC[C@H](NC(=O)[C@H](Cc3ccc(O)cc3)NC(=O)[C@H](C(C)C)NC(=O)[C@H](CCCNC(=N)N)NC(=O)CNC(=O)[C@H]3CCCN3C1=O)C(=O)N[C@@H](CCC(N)=O)C(=O)N1CCC[C@H]1C(=O)NCC(=O)N[C@@H](Cc1c[nH]c3ccccc13)C(=O)N2 | Inducible T-cell costimulator, with ICOS ligand (Homo sapiens, UniProt Q9Y6W8) | ICOS/ICOS-L binding, inhibitor, TR-FRET | – | – | 22900 ± 5470 nM
CCCC[C@H](NC(=O)CNC(=O)CNC(=O)[C@H](CCCCNC(=O)[C@H](CC(N)=O)NC(=O)C(C)c1ccc(CC(C)C)cc1)NC(=O)CN1CCN(CC(=O)O)CCN(CC(=O)O)CCN(CC(=O)O)CC1)C(=O)N[C@H]1CC(=O)NCCCC[C@@H](C(N)=O)NC(=O)[C@H](Cc2c[nH]c3ccccc23)NC(=O)[C@H](CCCNC(=N)N)NC(=O)[C@@H](Cc2ccccc2)NC(=O)[C@H](Cc2c[nH]cn2)NC1=O (stereo partly drawn) | Mc1r (Mus musculus, UniProt Q01727) | radioligand binding, competitor | B16-F10 mouse melanoma | 2 h, 25 °C, added: radiolabelled NDP-MSH | 0.03 ± 0.01 nM
CCCCCCCCC(=O)Nc1ccc(Nc2ncc(F)c(-c3cc(F)c4nc(C)n(C(C)C)c4c3)n2)cc1 | CDK4 | – | – | – | 22 nM
O=C(O)Cc1cc2c(cc1C(=O)c1ccccc1Cl)OCO2 | Gria2 | ion current, patch clamp | – | – | 4110 nM
C[C@@H](CNCc1cc(Cl)cc(Cl)c1)CNc1nc2nc(F)ccc2[nH]1 | MARS2 | enzyme activity, inhibitor | – | – | 19.5 nM
COC(=O)CCCCCCCNC(=O)Cc1ccc(Nc2ncc(F)c(-c3cc(F)c4nc(C)n(C(C)C)c4c3)n2)cc1 | CDK4 | – | – | – | 3 nM
Cc1cc(C)n(-c2nc(-c3ccccc3)cc(=O)n2CC(=O)N2CCCCCC2)n1 | LNPEP (Homo sapiens, UniProt Q9UIQ6) | enzyme activity, inhibitor, fluorescence | – | – | 55000 nM
Cc1cc(O)c2c(c1O)C(=O)c1cc(O)cc(O)c1C2=O | MAOA | enzyme activity, inhibitor | – | – | ~9000 nM and 9130 nM
O=C(CN1CN(c2ccccc2)C2(CCN(C(=O)c3ccc4[nH]ncc4c3)CC2)C1=O)N1CCOC(C(F)(F)F)C1 (stereo not drawn) | DDR2 | ligand displacement | – | – | 679 nM
CCCCCCN(O)C(=O)CCCCC[C@@H]1NC(=O)[C@H]([C@@H](C)CC)NC(=O)[C@H](Cc2ccccc2C(F)(F)F)NC(=O)CCSCc2cccc(n2)CSCCCNC1=O | HDAC4 (Homo sapiens, UniProt P56524) | enzyme activity, inhibitor, fluorogenic | – | – | > 30000 nM
CN[C@H]1CCN(C(=O)c2c(C)cc(C(F)(F)F)nc2-c2ccnc3cc(CN4C(=O)C5C(C4=O)C5(C)C)sc23)C1 (stereo partly drawn) | USP7 (Homo sapiens, UniProt Q93009) | enzyme activity, inhibitor, fluorescence | – | – | 33 nM
CCCCCCN(O)C(=O)CCCCC[C@@H]1NC(=O)CCSCc2cccc(n2)CSCCNC(=O)[C@H](CCc2ccccc2)NC(=O)[C@H](CC)NC1=O | HDAC11 | enzyme activity, inhibitor, fluorescence | – | – | 500 nM
O=C(Cn1ncc2cccn2c1=O)NC(c1ccccc1)c1ccccc1 | VKORC1 | carboxylation, inhibitor, ELISA | HEK293 stably expressing | 24 h, added: vitamin K epoxide 5 µM | 38900 nM
O=C(O)CCNC(=S)NCCCC[C@H](NS(=O)(=O)c1cccc(F)c1)C(=O)N[C@@H](Cc1c[nH]c2ccccc12)C(=O)NC1CCC1 | SIRT5 (Homo sapiens, UniProt Q9NXA8) | inhibitor, fluorogenic | – | pre-incubation 24 h, added: NAD+ 500 µM | 150 ± 10 nM
CCCCN(CCc1ccccc1)CCc1cccc(O)c1 | Oprm1 (Rattus norvegicus, UniProt P33535) | β-arrestin recruitment, antagonist | – | – | 1100 nM
O=C(Nc1ccc(C(=O)Nc2ccc3c(O)cc(S(=O)(=O)O)cc3c2)cc1)c1ccccc1 | Trex1 (Mus musculus, UniProt Q91XB0) | enzyme activity, inhibitor | – | – | 30300 nM
CN1CCc2cc(Br)c(O)cc2C(c2ccc(NC(=O)CCOCCOCCN=[N+]=[N-])cc2)C1 (stereo not drawn) | DRD1 (Homo sapiens, UniProt P21728) | cell-based | – | – | 93.3 nM
COC(=O)CCCCCCC(=O)Nc1cccc(Nc2ncc(F)c(-c3cc(F)c4nc(C)n(C(C)C)c4c3)n2)c1 | CDK4 | – | – | – | 4.9 nM
CCn1nc(Cl)c2c1-c1cnc(N)c(c1)O[C@H](C)c1cc(F)ccc1-c1nn(C)cc1C2 | EPHB1 (Homo sapiens, UniProt P54762) | enzyme activity, inhibitor, radiometric | – | – | 485 nM
CC(C)c1ccc(/C=C/C(=O)c2ccc(Br)cc2)cc1 | MAOA | enzyme activity, inhibitor | – | – | 1300 nM

Structure (SMILES) | target | test | test system | conditions | IC50
O=C(CN1CN(c2ccccc2)C2(CCN(C(=O)c3ccc4[nH]ncc4c3)CC2)C1=O)Nc1cccnc1 | DDR2 | ligand displacement | – | – | 41500 nM
CCCCCCC(=O)Nc1ccc(Nc2ncc(F)c(-c3cc(F)c4nc(C)n(C(C)C)c4c3)n2)cc1 | CDK4 | – | – | – | 5.9 nM
O=C(CN1CN(c2ccccc2)C2(CCN(C(=O)c3ccc4[nH]ncc4c3)CC2)C1=O)N(CCO)CC(F)(F)F | DDR2 | ligand displacement | – | – | 2680 nM
O=C(Cn1ncc2cccn2c1=O)N1CCOCC1 | VKORC1 | carboxylation, inhibitor, ELISA | HEK293 stably expressing | 24 h, added: vitamin K epoxide 5 µM | 91600 nM
Cc1cc(C)c(S(=O)(=O)N(CC(=O)O)c2ccc(Nc3ccnc(N4CCCC4)n3)cc2)c(C)c1 | ATR (Homo sapiens, UniProt Q13535) | enzyme activity, inhibitor | – | – | > 100000 nM
Cc1nc2c(F)cc(-c3nc(Nc4ccc(CC(=O)NCCCC(=O)NO)cc4)ncc3F)cc2n1C(C)C | CDK4 | – | – | – | 1.2 nM
C[C@@H](CNCc1cc(Cl)cc(Cl)c1)CNc1nc2cccnc2[nH]1 | MARS2 | enzyme activity, inhibitor | – | – | 20 nM
CCN(CC)CC(=O)Nc1cccc(-n2cc(-c3ccc4ccc(-c5cn(-c6cccc(NC(=O)CN(CC)CC)c6)nn5)cc4c3)nn2)c1 | PDPK1 (Homo sapiens, UniProt O15530) | enzyme activity, inhibitor | – | – | > 10000 nM
CC1CC(C)CN(C(=O)Cn2ncc3cccn3c2=O)C1 (stereo not drawn) | VKORC1 | carboxylation, inhibitor, cell-based | – | – | 5500 nM
Cc1cc(NC2CCN(C)CC2)ccc1-c1cc2c(N3CCC[C@H](C(=O)NCc4ccc(OC(F)(F)F)cc4)C3)ncnc2[nH]1 | MTOR (Homo sapiens, UniProt P42345) | enzyme activity, inhibitor, TR-FRET | – | – | > 8000 nM
O=C(NCC(F)c1ccc(Cl)cc1Cl)c1cc(Cl)nnc1Oc1cccc(C2CC2)c1 (stereo not drawn) | serine palmitoyltransferase (Botrytis cinerea, UniProt A0A384JAG3+A0A384JQT2) | – | – | – | 14 ± 3 nM
CC(C)c1ccc(/C=C/C(=O)c2nc3ccccc3[nH]2)cc1 | MAOA | enzyme activity, inhibitor | – | – | 12400 nM
COC(=O)Cc1cc2c(cc1C(=O)c1ccccc1Cl)OCO2 | Gria2 | glutamate-evoked current, inhibitor, whole-cell patch clamp | HEK293T, homomeric receptor | – | 5010 nM
N#CN1CC[C@H](C(=O)Nc2nc3c(s2)CN(C(=O)Cn2cc(CNC(=O)CCCC[C@@H]4SC[C@@H]5NC(=O)N[C@@H]54)nn2)CC3)C1 | UCHL1 (Homo sapiens, UniProt P09936) | enzyme activity, inhibitor, fluorescence | – | with preincubation | 500 nM
COC(=O)CCCCCC(=O)NCc1ccc(Nc2ncc(F)c(-c3cc(F)c4nc(C)n(C(C)C)c4c3)n2)cc1 | CDK4 | – | – | – | 1.1 nM
CC(C)C[C@H](NC(=O)[C@@H](CCCCNC(=O)[C@@H](Cc1ccccc1)NC(=O)CCCCCCCCCCNC(=O)CN1CCN(CC(=O)O)CCN(CC(=O)O)CCN(CC(=O)O)CC1)NC(=O)[C@H](Cc1ccc(O)cc1)NC(=O)[C@H](CO)NC(=O)[C@H](Cc1c[nH]c2ccccc12)NC(=O)[C@H](Cc1c[nH]cn1)NC(=O)[C@@H]1CCC(=O)N1)C(=O)N[C@@H](CCCNC(=N)N)C(=O)N1CCC[C@H]1C(=O)NCC(N)=O | GNRHR (Homo sapiens, UniProt P30968) | ligand displacement, radioligand | – | pH 7.4, cell membranes | 24.6 nM
Cc1cc(C(=O)N[C@H](C(=O)Nc2cccc(C(N)=O)c2)c2ccc(OCc3ccccc3)cc2)n(Cc2ccccc2)n1 | Genome polyprotein, NS2B-NS3 protease (dengue virus type 2, UniProt P29990) | enzyme activity | – | added: AMC substrate 50 µM | 8600 nM
Cc1ccc(C(=O)Nc2ccnc(S(N)(=O)=O)c2)c(N2CCCC(F)(F)CC2)n1 | SCN9A (Homo sapiens, UniProt Q15858) | Nav1.7 sodium current, inhibitor, automated patch clamp | – | – | > 33800 nM
CNC(=O)c1ccc(-c2cc(Cl)cc(Cl)c2Cl)c(N)n1 | SCN9A (Homo sapiens, UniProt Q15858, S1445G) | ion current, inhibitor, patch clamp | – | – | 230 nM
Cc1nn(-c2cccc(N)c2)c(=O)c2cnc(Nc3ccc(N4CCNCC4)cc3)nc12 | DAPK1 (Homo sapiens, UniProt P53355) | enzyme activity, inhibitor | – | – | 2810 nM
Cc1nc2c(F)cc(-c3nc(Nc4ccc(C(=O)NCCCCCC(=O)NO)cc4)ncc3F)cc2n1C(C)C | CDK4 | – | – | – | 1.9 nM
CCOc1cc(CN2CC3(CC(N4CCC(C(=O)O)CC4)=NO3)C2)cc(OCC)c1-c1ccc(F)cc1 | SSTR5 (Homo sapiens, UniProt P35346, N100A) | cAMP level, antagonist, GloSensor | AD293 | N100A mutant, bandwidth 2.64, added: CST17 EC80 and forskolin | 1120 nM

Some of these lines once more:
Structure (SMILES) | target | test | test system | conditions | IC50
COC(=O)CCCCCCC(=O)Nc1cccc(Nc2ncc(F)c(-c3cc(F)c4nc(C)n(C(C)C)c4c3)n2)c1 | CDK4 | – | – | – | 4.9 nM
CCn1nc(Cl)c2c1-c1cnc(N)c(c1)O[C@H](C)c1cc(F)ccc1-c1nn(C)cc1C2 | EPHB1 (Homo sapiens, UniProt P54762) | enzyme activity, inhibitor, radiometric | – | – | 485 nM
CC(C)c1ccc(/C=C/C(=O)c2ccc(Br)cc2)cc1 | MAOA | enzyme activity, inhibitor | – | – | 1300 nM
